Measured values gathered from unrelated publications.
Each line is one published result; not all experiments were run side by side.
UniProt Q70CQ1, sequence (whole entry, looked up): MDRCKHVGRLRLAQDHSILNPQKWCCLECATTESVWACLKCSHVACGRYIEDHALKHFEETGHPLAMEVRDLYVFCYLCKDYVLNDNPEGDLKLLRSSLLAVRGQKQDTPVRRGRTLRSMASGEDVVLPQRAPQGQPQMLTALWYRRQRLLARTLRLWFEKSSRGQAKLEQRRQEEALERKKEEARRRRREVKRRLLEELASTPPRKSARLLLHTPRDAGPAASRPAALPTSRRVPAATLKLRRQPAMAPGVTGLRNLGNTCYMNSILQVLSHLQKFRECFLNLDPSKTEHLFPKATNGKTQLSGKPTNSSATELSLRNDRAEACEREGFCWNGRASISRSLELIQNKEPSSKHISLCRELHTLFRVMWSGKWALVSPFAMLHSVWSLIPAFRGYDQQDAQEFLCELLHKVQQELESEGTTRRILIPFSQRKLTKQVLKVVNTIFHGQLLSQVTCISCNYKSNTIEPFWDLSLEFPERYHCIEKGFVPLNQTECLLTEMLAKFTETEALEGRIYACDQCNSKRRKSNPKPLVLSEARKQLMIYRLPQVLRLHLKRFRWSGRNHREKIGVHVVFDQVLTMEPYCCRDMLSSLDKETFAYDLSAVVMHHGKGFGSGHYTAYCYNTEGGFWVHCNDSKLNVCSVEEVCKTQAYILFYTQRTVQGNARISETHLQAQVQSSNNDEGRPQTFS
UniProt Q9Y2K6, sequence (whole entry, looked up): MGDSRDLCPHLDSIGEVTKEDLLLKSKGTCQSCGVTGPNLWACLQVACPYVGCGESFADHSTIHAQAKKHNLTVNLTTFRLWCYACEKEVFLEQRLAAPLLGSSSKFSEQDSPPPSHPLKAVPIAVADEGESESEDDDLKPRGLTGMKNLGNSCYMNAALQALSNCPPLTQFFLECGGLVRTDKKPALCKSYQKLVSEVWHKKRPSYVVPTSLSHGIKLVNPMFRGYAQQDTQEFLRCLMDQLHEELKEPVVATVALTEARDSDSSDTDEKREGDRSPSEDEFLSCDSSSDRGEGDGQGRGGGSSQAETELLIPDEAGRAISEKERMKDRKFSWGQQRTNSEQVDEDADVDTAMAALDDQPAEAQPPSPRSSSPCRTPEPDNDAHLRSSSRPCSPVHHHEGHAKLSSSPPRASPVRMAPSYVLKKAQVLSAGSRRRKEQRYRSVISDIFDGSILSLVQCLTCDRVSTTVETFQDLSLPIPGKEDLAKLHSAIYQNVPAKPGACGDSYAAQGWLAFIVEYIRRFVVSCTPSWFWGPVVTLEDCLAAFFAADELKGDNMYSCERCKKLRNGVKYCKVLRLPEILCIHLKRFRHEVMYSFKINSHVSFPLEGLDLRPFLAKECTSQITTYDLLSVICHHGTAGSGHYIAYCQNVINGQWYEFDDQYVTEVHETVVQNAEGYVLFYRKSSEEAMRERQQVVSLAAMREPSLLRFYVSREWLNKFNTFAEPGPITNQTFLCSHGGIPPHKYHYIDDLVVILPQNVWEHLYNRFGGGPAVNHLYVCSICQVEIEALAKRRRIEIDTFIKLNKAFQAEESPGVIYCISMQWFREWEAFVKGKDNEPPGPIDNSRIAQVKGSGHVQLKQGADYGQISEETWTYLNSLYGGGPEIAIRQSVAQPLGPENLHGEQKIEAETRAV

The Kd of O=C(O)CCc1cnccn1 is reported as > 1000 µM (Ubiquitin carboxyl-terminal hydrolase 49, ZnF-UBD domain (USP49, Homo sapiens, UniProt Q70CQ1)).
For Cc1cccc(-c2[nH]c(CNc3ccccc3F)nc2-c2ccc3ncnn3c2)n1, the inhibition was 15.7% (NLRP3 inflammasome (mouse); mouse BMDM; 10 µM).
Under “log2 fold change”, Cn1cc(-c2ccc(-c3cncc(Cl)c3N3CCC4(CCNC4=O)CC3)cc2)cn1 is recorded as 2.3 (COLO 205; gene expression, microarray, measured: SLC39A8 mRNA; concentration not given, 2 h; reference: untreated cells).
With Cc1ccc(C(=O)Nc2ccc(Oc3cc4cnn(C)c4cc3-c3cn[nH]c3)c(F)c2)c(=O)n1-c1ccc(F)cc1 the inhibition was 29.4% (NLRP3 inflammasome (mouse); mouse BMDM; 10 µM).
With COc1cc2c(N3CCN(C(=O)Nc4ccc(OC(C)C)cc4)CC3)ncnc2cc1OCCCN1CCCCC1 the beat amplitude was 98% (iCell Cardiomyocytes (hiPSC-derived); xCELLigence Cardio impedance; concentration not given, 2 h; reference: control).
Nc1nc(-c2ccccc2)nc2[nH]nc(Nc3ccc(C(F)(F)F)cc3)c12 has a clinical score of 0 (coxsackievirus B3; 31-1-93, NMRI mice, CVB3 chronic myocarditis; oral, 100 mg/kg twice daily, day 19, dosed days 0 to 6, score scale 0 to 7; direction not given).
For Cc1ccc(F)c(NC(=O)Nc2ccc(-c3cccc4[nH]nc(N)c34)cc2)c1, the inhibition was 91.6% (NLRP3 inflammasome (mouse); mouse BMDM; 10 µM).
For Cc1cn(-c2cc(NC(=O)c3ccc(C)c(Nc4nccc(-c5cccnc5)n4)c3)cc(C(F)(F)F)c2)cn1, the beat rate was 98.1% (iCell Cardiomyocytes (hiPSC-derived); xCELLigence Cardio impedance; concentration not given, 2 h; reference: control).
With CC(C)NCC(O)c1ccc(O)c(O)c1 (stereo not shown) the sarcomere length was 1.59 µm (ventricular cardiomyocytes, C57BL/6 mouse; dose not given, 0.144 s).
For OC[C@H]1O[C@H](OCC2O[C@@H](O)[C@H](O)[C@@H](O)[C@@H]2O)[C@H](O)[C@@H](O)[C@H]1O (stereo partly shown), “z-scored log2 fold change” read 0.268 (binding, equilibrium dialysis LC-MS; 5 µM, thermostabilized A2AR-BRIL construct; reference: no-protein control, direction not given).
Cc1nc(N(C)C(=O)Cc2ccc(-c3ccccn3)cc2)sc1S(N)(=O)=O gave a selectivity index of > 20 (human alphaherpesvirus 1; K26 GFP, 3D skin equivalent, submerged; reference: CC50 over IC50).
For Oc1ccccc1-c1n[nH]cc1-c1ccnc2ccccc12, “log2 fold change” read 0.33 (orf19.6492 Candida albicans; kinase binding, MIB/MS competition; Candida albicans lysate; 10 µM; reference: DMSO).
O=c1[nH]cnc2c1ncn2[C@@H]1O[C@H](COP(=O)(O)OP(=O)(O)OP(=O)(O)O)[C@@H](O)[C@H]1O: “z-scored log2 fold change” -2.21 (binding, equilibrium dialysis LC-MS; 5 µM, thermostabilized A2AR-BRIL construct; reference: no-protein control, direction not given).
With C[C@@H](Oc1cc(-c2cnn(C3CCNCC3)c2)cnc1N)c1c(Cl)ccc(F)c1Cl the beat amplitude was 93.9% (iCell Cardiomyocytes (hiPSC-derived); xCELLigence Cardio impedance; concentration not given, 2 h; reference: control).
Under “z-scored log2 fold change”, O=C(O)/C=C(/CC(=O)O)C(=O)O is recorded as 0.0294 (binding, equilibrium dialysis LC-MS; 5 µM, thermostabilized A2AR-BRIL construct; reference: no-protein control, direction not given).
The inhibition of CCN(CCO)CCCOc1ccc2c(Nc3cc(CC(=O)Nc4cccc(F)c4)[nH]n3)ncnc2c1 is reported as -76% (NLRP3 inflammasome (mouse); mouse BMDM; 10 µM).
C[C@H](O)CC(=O)O: “z-scored log2 fold change” -0.0853 (binding, equilibrium dialysis LC-MS; 5 µM, thermostabilized A2AR-BRIL construct; reference: no-protein control, direction not given).
OC(CCN1CCCCC1)(c1ccccc1)C1CC2C=CC1C2 (stereo not shown): “EEG Beta2-power Fz-Cz” 0.8 µV² (resting-state EEG; healthy elderly humans; oral, 4 mg, eyes open, LS mean).
O=C(O)CCCCCCCCCCC(=O)O — result for “z-scored log2 fold change”: -0.341 (binding, equilibrium dialysis LC-MS; 5 µM, thermostabilized A2AR-BRIL construct; reference: no-protein control, direction not given).
The Kd of O=C(O)CCc1nc2ncccn2n1 is reported as 110 µM (Ubiquitin carboxyl-terminal hydrolase 20, ZnF-UBD domain (USP20, Homo sapiens, UniProt Q9Y2K6)).
COc1cc2ncnc(Oc3cccc(NC(=O)Nc4cc(C(C)(C)C(F)(F)F)on4)c3)c2cc1OC has an inhibition of -46.8% (NLRP3 inflammasome (mouse); mouse BMDM; 10 µM).
Under “z-scored log2 fold change”, Cc1ncc(COP(=O)(O)O)c(CN)c1O is recorded as 1.07 (binding, equilibrium dialysis LC-MS; 5 µM, thermostabilized A2AR-BRIL construct; reference: no-protein control, direction not given).
